Measured values pooled from the literature.
Parts stem from different laboratories: compare values within a part only.
Sequence of UniProt O75582 (whole entry, looked up): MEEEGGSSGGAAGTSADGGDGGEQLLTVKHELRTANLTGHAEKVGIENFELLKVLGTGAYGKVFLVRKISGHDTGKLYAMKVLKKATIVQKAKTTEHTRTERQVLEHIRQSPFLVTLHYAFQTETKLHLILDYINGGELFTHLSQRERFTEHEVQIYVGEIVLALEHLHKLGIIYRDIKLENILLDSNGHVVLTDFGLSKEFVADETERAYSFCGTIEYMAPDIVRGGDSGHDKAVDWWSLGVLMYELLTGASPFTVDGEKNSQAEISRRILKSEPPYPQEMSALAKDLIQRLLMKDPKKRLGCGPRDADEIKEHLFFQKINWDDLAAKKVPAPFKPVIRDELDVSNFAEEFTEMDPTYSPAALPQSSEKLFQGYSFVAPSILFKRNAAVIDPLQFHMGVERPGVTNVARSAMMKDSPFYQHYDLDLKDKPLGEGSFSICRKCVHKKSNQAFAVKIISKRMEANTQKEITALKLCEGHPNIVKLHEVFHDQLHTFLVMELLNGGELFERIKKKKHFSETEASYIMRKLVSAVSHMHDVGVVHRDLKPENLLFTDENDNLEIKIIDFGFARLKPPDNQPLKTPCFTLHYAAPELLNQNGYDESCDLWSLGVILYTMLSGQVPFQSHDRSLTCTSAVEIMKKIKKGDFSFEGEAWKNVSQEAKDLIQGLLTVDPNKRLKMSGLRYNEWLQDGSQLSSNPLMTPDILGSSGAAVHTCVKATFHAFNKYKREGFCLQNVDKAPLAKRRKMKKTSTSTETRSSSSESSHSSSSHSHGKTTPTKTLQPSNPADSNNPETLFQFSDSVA
Sequence of UniProt Q8IVH8 (whole entry, looked up): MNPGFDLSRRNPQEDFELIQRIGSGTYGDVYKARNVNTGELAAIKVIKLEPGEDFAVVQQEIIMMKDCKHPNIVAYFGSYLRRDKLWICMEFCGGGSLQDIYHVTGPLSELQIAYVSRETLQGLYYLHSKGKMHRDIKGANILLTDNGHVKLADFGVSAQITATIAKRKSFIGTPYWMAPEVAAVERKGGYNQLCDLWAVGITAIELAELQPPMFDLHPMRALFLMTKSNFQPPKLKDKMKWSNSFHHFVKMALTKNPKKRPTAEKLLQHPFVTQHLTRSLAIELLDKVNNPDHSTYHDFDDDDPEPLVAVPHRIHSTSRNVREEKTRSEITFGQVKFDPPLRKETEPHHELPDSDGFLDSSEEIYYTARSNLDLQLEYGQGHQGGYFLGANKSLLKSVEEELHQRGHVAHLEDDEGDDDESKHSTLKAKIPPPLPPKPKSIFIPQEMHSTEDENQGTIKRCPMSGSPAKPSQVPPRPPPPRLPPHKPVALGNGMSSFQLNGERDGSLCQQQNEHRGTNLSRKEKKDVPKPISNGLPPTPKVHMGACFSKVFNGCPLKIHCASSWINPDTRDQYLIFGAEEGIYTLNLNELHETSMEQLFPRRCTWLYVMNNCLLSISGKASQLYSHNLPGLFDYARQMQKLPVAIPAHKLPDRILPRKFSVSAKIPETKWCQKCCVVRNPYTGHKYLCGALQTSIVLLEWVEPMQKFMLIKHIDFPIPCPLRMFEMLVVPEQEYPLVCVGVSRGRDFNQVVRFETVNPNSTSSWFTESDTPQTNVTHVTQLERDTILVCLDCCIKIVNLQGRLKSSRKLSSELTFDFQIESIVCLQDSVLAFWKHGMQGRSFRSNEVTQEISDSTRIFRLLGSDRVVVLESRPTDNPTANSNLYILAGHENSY
Sequence of UniProt Q8NFD2 (whole entry, looked up): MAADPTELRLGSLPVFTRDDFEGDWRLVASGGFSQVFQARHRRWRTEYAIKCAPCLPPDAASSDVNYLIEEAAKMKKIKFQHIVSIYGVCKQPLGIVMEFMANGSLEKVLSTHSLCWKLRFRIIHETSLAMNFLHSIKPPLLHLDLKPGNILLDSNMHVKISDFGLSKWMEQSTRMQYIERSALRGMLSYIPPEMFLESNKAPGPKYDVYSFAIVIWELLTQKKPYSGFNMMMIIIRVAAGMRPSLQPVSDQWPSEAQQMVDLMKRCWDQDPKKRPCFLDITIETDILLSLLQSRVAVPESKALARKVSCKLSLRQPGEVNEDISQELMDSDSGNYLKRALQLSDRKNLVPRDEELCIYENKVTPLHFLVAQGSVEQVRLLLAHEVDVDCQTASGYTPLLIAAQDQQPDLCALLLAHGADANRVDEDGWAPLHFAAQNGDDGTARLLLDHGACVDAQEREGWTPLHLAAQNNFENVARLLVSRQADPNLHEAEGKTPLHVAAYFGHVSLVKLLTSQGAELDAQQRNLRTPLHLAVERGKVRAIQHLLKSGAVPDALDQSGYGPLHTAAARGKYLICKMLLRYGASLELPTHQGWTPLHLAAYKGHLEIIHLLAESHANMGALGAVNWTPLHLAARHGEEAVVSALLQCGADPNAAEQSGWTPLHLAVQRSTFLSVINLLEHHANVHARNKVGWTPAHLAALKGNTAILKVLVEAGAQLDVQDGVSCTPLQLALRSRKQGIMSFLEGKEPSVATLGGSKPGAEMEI

Block 1 — effect on: enzyme activity; mode: inhibitor; concentration: 0.5 µM; relative to: control
Target: Serine/threonine-protein kinase Chk1 (CHEK1, Homo sapiens, UniProt O14757)
Target sequence (O14757 1-476): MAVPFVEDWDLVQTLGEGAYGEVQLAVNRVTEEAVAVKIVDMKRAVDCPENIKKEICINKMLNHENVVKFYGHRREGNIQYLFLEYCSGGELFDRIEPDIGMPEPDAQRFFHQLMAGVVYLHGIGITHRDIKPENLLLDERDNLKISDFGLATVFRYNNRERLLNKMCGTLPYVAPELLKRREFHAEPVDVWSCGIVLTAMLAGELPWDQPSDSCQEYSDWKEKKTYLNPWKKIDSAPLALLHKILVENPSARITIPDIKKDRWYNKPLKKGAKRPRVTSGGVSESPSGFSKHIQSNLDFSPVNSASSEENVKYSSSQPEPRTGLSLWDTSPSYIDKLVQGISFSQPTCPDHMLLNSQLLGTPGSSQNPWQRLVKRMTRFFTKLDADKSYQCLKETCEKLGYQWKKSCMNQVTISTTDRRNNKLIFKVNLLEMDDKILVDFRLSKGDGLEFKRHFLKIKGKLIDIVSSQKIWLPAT
| SMILES | remaining activity [%] |
| --- | --- |
| O=C1c2ccccc2-c2n[nH]c3cccc1c23 | 72.2 |
| Nc1cccc(-c2cc3c(Oc4cccc(O)c4)ncnc3[nH]2)c1 | 66.2 |
| Ic1cccc(CSc2nnc(-c3ccncc3)o2)c1 | 96.3 |
| c1ccc(-c2[nH]ncc2-c2ccnc3ccccc23)nc1 | 99.7 |
| CCN(CC)C(=O)c1ccc(Nc2nc(OCC3CCCCC3)c3[nH]cnc3n2)cc1 | 66.1 |
| Cc1cc2ncc(-c3ccccc3)nc2cc1C | 94.2 |
| c1ccc(-c2cnc(Nc3ccc(OCCN4CCCC4)cc3)s2)cc1 | 86.6 |
| Cc1nc2cc3nc(-c4cccs4)cnc3cc2n1C | 99.8 |
| COc1cc2ncnc(Nc3ccc(O)c(Br)c3)c2cc1OC | 92.8 |
| CN(C)C[C@H]1CCn2c(c(C3=C(c4cn(C)c5ccccc45)C(=O)NC3=O)c3ccccc32)C1 | 69.8 |
| CCOc1nc(NC(=O)Cc2cc(OC)ccc2OC)cc(N)c1C#N | 151 |
| CCN(CC)CCNC(=O)c1c(C)[nH]c(/C=C2\C(=O)Nc3ccc(Cl)cc32)c1C | 15.1 |
| O=C(NC(NC(=S)Nc1ccc(F)c([N+](=O)[O-])c1)C(Cl)(Cl)Cl)C(c1ccccc1)c1ccccc1 (stereo not shown) | 100 |
| Cn1nc2c3c(cccc31)C(=O)c1ccccc1-2 | 93.7 |
| Cc1cn(-c2cc(NC(=O)c3ccc(C)c(Nc4nccc(-c5cccnc5)n4)c3)cc(C(F)(F)F)c2)cn1 | 90.9 |
| O=C1C(Cl)=C(N2C(=O)CCC2=O)C(=O)c2ccccc21 | 111 |
| COc1cc2c(cc1OC)-c1[nH]nc(Nc3cccc(F)c3)c1C2 | 92.4 |
| COc1cc2ncnc(Nc3cccc(Cl)c3)c2cc1OC | 93.7 |
| CN([C@@H](Cc1ccc(OS(=O)(=O)c2cccc3cnccc23)cc1)C(=O)N1CCN(c2ccccc2)CC1)S(=O)(=O)c1cccc2cnccc12 | 99.5 |
| O=C(Nc1cccc(Nc2nccc(Nc3cccc(C(F)(F)F)c3)n2)c1)C1CC1 | 96.6 |
| N#Cc1c(NC(=O)c2cccc3ccccc23)sc2c1CCCC2 | 104 |
| O=c1cc(-c2cccc3c2Sc2ccccc2S3)oc(N2CCOCC2)c1 | 109 |

Block 2 — species: mouse; sample: microsomes or S9; concentration: 2 µM; time: 0.5 h
| SMILES | remaining compound [%] |
| --- | --- |
| O=C(NCC1OCCc2sc(F)cc21)c1ccn2nnnc2c1 (stereo not shown) | 56.6 |
| c1ccc(C2CCC3(CC2)Oc2ccccc2C2CC(c4ccncc4)=NN23)cc1 (stereo not shown) | 65.6 |
| Oc1ccccc1Oc1ncc(Br)c(Cl)n1 | 54.8 |
| Cc1ccc(C(=O)COC(=O)c2ccc(Cn3ccccc3=O)o2)s1 | 3 |
| Cc1nc(C(C)C)sc1C(C)NCC1CCCS1(=O)=O (stereo not shown) | 16.3 |
| NC(=O)c1cccc2c1nc1scc(CN3CCCC3)n12 | 16.2 |
| CC(C)CS(=O)(=O)CC(=O)n1cccc/c1=N\C(C)C | 59.8 |
| COc1ccc(F)cc1-n1c(=O)[nH]c2c(c1=O)CCC2 | 64.4 |
| Cc1n[nH]c(C)c1CNC(=O)C1CCN(C(=O)c2ncn3c2COC(c2ccc(F)cc2)C3)CC1 (stereo not shown) | 68 |
| CNC1=C(c2cc(C)cc(C)n2)C(=O)C(c2ccccc2Cl)O1 (stereo not shown) | 0.103 |
| CNC(=O)N1CCc2cc(S(=O)(=O)Nc3ccc(Cl)cc3)ccc21 | < 1 |
| CC(C)c1cc(C(C)C)c(S(=O)(=O)NCCCO)c(C(C)C)c1 | 0.536 |
| CC(C)CN(CC(C)C)S(=O)(=O)c1ccc(NC(=O)C(C)C)cc1 | < 1 |

Block 3 — effect on: cell-free assay; method: competition with immobilised ligand; concentration: 1 µM
Compound: CC(=O)C1=C(C)N(c2cccc(C(F)(F)F)c2)C(=O)N[C@@H]1c1ccc(C#N)nc1
| target | remaining binding [%] |
| --- | --- |
| Ribosomal protein S6 kinase alpha-5, C-terminal kinase domain (RPS6KA5, Homo sapiens, UniProt O75582) | 83.4 |
| LATS1 (Homo sapiens, UniProt O95835) | 67.1 |
| PRKACB (Homo sapiens, UniProt P22694) | 48.7 |
| EPHB6 (Homo sapiens, UniProt O15197) | 85 |
| ANKK1 (Homo sapiens, UniProt Q8NFD2) | 100 |
| LIM domain kinase 1 (LIMK1, Homo sapiens, UniProt P53667) | 70.2 |
| PLK3 (Homo sapiens, UniProt Q9H4B4) | 84.2 |
| MAP4K1 (Homo sapiens, UniProt Q92918) | 100 |
| CSNK1G1 (Homo sapiens, UniProt Q9HCP0) | 100 |
| MAP3K7 (Homo sapiens, UniProt O43318) | 100 |
| MATK (Homo sapiens, UniProt P42679) | 100 |
| PKMYT1 (Homo sapiens, UniProt Q99640) | 90.6 |
| CDK9 (Homo sapiens, UniProt P50750) | 100 |
| PIK3CA (Homo sapiens, UniProt P42336, E545K) | 77.5 |
| FES (Homo sapiens, UniProt P07332) | 84.1 |
| MAP4K3 (Homo sapiens, UniProt Q8IVH8) | 83.5 |

Block 4 — effect on: enzyme activity; mode: inhibitor; concentration: 77 µM
Target: DNA polymerase theta, ATPase domain (POLQ, Homo sapiens, UniProt O75417)
Sequence of UniProt O75417 (whole entry, unmodified, looked up): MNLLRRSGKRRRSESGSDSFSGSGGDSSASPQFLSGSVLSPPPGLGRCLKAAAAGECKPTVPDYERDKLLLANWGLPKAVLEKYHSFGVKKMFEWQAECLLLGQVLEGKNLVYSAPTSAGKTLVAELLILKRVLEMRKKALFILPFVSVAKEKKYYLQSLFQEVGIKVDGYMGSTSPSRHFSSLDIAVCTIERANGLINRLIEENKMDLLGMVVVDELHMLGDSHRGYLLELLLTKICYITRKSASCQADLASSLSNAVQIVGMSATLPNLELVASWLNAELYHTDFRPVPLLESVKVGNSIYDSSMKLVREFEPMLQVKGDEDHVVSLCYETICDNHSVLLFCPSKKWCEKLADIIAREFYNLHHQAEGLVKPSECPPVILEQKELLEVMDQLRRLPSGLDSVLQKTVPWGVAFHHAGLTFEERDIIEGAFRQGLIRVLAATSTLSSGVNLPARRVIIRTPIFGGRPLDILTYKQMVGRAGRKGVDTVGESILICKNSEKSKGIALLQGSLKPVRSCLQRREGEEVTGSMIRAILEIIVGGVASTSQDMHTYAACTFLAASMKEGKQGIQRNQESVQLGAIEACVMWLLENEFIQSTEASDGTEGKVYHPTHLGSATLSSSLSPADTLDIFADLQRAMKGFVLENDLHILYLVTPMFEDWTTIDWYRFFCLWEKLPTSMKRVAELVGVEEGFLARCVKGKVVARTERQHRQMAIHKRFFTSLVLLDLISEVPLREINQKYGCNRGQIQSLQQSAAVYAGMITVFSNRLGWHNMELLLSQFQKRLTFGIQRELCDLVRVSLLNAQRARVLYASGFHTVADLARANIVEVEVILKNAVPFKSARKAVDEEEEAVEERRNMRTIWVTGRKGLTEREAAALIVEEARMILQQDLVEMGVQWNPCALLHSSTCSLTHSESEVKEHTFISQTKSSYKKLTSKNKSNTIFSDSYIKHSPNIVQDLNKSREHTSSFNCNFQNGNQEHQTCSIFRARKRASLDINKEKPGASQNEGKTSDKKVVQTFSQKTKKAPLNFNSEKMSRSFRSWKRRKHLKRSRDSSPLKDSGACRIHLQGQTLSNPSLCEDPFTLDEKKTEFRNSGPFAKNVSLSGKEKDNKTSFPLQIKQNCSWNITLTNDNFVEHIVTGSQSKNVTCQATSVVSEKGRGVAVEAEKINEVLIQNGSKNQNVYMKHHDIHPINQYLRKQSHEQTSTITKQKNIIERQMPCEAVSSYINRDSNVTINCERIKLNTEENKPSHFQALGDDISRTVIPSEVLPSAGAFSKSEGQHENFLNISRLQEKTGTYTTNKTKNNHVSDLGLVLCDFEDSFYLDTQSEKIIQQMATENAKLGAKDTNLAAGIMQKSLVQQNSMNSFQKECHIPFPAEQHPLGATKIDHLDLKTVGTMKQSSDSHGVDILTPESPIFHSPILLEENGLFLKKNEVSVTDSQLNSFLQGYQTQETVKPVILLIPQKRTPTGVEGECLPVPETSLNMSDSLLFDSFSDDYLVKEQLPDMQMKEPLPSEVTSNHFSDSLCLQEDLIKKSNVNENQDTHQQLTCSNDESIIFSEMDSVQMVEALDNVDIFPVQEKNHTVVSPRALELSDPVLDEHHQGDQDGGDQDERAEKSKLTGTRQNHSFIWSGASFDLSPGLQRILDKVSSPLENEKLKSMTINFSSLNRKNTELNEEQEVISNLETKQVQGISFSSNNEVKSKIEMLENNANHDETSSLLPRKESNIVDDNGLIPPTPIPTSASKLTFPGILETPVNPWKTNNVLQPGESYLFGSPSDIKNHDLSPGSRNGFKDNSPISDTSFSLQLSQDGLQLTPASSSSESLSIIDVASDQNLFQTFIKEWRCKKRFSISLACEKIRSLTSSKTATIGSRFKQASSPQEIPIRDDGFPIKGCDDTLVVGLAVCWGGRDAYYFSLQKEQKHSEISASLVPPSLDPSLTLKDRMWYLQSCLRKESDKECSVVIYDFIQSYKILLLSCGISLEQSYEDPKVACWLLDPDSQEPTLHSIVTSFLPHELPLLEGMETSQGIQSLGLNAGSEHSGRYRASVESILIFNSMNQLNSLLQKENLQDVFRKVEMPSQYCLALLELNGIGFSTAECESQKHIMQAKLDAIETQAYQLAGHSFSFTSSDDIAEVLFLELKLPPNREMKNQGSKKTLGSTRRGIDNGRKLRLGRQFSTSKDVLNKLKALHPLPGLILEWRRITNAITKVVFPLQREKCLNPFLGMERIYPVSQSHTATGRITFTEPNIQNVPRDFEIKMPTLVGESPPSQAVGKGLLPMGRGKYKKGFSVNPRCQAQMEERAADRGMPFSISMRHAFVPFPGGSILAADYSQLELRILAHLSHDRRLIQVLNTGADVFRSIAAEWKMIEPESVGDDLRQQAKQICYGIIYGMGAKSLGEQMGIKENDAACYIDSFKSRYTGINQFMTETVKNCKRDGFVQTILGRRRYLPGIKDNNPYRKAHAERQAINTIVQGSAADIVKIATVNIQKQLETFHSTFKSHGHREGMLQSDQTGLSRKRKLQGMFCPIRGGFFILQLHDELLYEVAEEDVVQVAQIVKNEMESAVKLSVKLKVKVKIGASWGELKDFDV
| Structure (SMILES) | remaining activity |
| --- | --- |
| C[N+](C)(C)CC=O | 97.8% |
| Cc1nc2n(c(=O)c1CCN1CCC(c3noc4cc(F)ccc34)CC1)CCCC2 | 96.2% |
| COc1ccc(C[C@@H](C)NC[C@H](O)c2ccc(O)c(NC=O)c2)cc1 (racemic) | 101% |
| COc1cc([C@@H]2c3cc4c(cc3[C@@H](O[C@@H]3O[C@@H]5CO[C@@H](C)O[C@H]5[C@H](O)[C@H]3O)[C@H]3COC(=O)[C@H]23)OCO4)cc(OC)c1O | 112% |
| Cc1c(C(N)=O)cc([N+](=O)[O-])cc1[N+](=O)[O-] | 100% |
| Nc1nc(N)c2nc(CNc3ccc(C(=O)N[C@@H](CCC(=O)O)C(=O)O)cc3)cnc2n1 | 99% |
| CC(=O)Nc1nnc(S(N)(=O)=O)s1 | 102% |
